Measured values of several laboratories.
Every numbered part comes from another study and shows a few of its results, in no order. Several values in a cell are separate wells, animals, samples, runs or records.
UniProt P35348, sequence (whole entry, looked up): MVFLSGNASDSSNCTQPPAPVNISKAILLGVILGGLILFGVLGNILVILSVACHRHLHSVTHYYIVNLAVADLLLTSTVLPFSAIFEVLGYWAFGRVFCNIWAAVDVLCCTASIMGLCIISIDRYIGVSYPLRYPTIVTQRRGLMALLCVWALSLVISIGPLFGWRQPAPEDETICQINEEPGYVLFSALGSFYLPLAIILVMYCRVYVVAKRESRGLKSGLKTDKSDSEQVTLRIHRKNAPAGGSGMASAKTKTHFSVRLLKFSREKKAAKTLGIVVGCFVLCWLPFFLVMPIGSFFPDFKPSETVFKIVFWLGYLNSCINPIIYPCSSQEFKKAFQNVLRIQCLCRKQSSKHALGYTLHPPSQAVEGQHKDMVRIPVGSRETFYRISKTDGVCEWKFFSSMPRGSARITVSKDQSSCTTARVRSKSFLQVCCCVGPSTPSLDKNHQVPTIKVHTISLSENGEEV

Block 1 — cell line: mouse MPNST tumor cells; technique: high-content immunofluorescence imaging; item: nuclear SOX9; concentration: 10 µM; time: 12 h; notes: mean of 2 replicates; reference: DMSO control; direction: higher = more nuclear SOX9; measurement: nuclear SOX9 intensity
Cc1ncc(CO)c(CO)c1O: 95.9 % of DMSO
O=C(CC1CC(c2ccc(F)cc2F)=NO1)N1CCOCC1 (stereo not drawn): 103 % of DMSO
CC(C)NCC(O)c1ccc(O)c(O)c1 (single isomer, unassigned; (+)): 98.3 % of DMSO
Cc1ncsc1-c1ccc(CNC(=O)[C@@H]2C[C@H](O)CN2C(=O)[C@@H](NC(=O)C2(C#N)CC2)C(C)(C)C)cc1: 89.7 % of DMSO
O=C(O)c1ccccc1Nc1cccc(OCc2ccc3ccccc3n2)c1: 90.2 % of DMSO
CC1(C)O[C@@H]2[C@@H](CO[C@@]3(COS(N)(=O)=O)OC(C)(C)O[C@@H]23)O1: 95.7 % of DMSO and 91.9 % of DMSO and 86.3 % of DMSO
N#Cc1cc(F)c(C(=O)Nc2ccnc(NC(=O)[C@H]3C[C@H]3F)c2)c(Cl)c1: 114 % of DMSO
CN1CCC(=C2c3ccccc3CCc3sccc32)CC1: 174 % of DMSO
CC(=O)O[C@]1(C(C)=O)CC[C@H]2[C@@H]3CCC4=CC(=O)CCC4=C3[C@@H](c3ccc(N(C)C)cc3)C[C@@]21C: 115 % of DMSO
NS(=O)(=O)c1ccc(-n2nc(C(F)(F)F)cc2-c2ccc(Cl)cc2)cc1: 137 % of DMSO
O=C(O)c1ccc(-c2ccc3cc(O)c(C45CC6CC(CC(C6)C4)C5)cc3c2)cc1: 113 % of DMSO
CN(C)CCCSC(=N)N: 97.4 % of DMSO
N#Cc1ccc(C(c2ccc(C#N)cc2)n2cncn2)cc1: 94.8 % of DMSO and 94.9 % of DMSO
C[C@H]1[C@@H](O)O[C@@H]2O[C@@]3(C)CC[C@H]4[C@H](C)CC[C@@H]1[C@@]24OO3: 97.9 % of DMSO
CC(=O)Nc1nnc(S(N)(=O)=O)s1: 96.4 % of DMSO and 116 % of DMSO and 94 % of DMSO

Block 2 — organism: Sarcocystis neurona; observed: parasite growth; strain: GFP/luciferase reporter; concentration: 10 µM; notes: hit confirmation screen; measurement: inhibition
COC(=O)C[C@](O)(CCCC(C)(C)O)C(=O)O[C@@H]1C(OC)=C[C@]23CCCN2CCc2cc4c(cc2[C@H]13)OCO4: 99.9%
COc1cccc2c1C(=O)c1c(O)c3c(c(O)c1C2=O)C[C@@](O)(C(=O)CO)C[C@@H]3O[C@H]1C[C@H](N)[C@@H](O)[C@H](C)O1: 98.5%
O=C(c1ccc(F)cc1)C1CCN(CCn2c(=S)[nH]c3ccccc3c2=O)CC1: 98.6%
OCCN1CCN(CCCN2c3ccccc3Sc3ccc(Cl)cc32)CC1: 99.2%
Oc1c(Cl)cc(Cl)c2cccnc12: 99.5%
COc1cccc2c1C(=O)c1c(O)c3c(c(O)c1C2=O)C[C@@](O)(C(C)=O)C[C@@H]3O[C@H]1C[C@H](N)[C@H](O)[C@H](C)O1: 99.7%
CN1CCCC(n2nc(Cc3ccc(Cl)cc3)c3ccccc3c2=O)CC1 (stereo not drawn): 99%
O=C1CN(/N=C/c2ccc(-c3ccc([N+](=O)[O-])cc3)o2)C(O)=N1: 97.7%
COc1cc(NC(C)CCCN)c2ncccc2c1 (stereo not drawn): 100%
CCN(CC)C(=S)SSC(=S)N(CC)CC: 99.9%
Oc1c(Cl)cc(Cl)c(Cl)c1Cc1c(O)c(Cl)cc(Cl)c1Cl: 97.1%

Block 3 — observed: enzyme activity; action: inhibitor; concentration: 0.5 µM; reference: control; measurement: remaining activity
Target: Serine/threonine-protein kinase B-raf (BRAF, Homo sapiens, UniProt P15056)
UniProt P15056, sequence (whole entry, looked up): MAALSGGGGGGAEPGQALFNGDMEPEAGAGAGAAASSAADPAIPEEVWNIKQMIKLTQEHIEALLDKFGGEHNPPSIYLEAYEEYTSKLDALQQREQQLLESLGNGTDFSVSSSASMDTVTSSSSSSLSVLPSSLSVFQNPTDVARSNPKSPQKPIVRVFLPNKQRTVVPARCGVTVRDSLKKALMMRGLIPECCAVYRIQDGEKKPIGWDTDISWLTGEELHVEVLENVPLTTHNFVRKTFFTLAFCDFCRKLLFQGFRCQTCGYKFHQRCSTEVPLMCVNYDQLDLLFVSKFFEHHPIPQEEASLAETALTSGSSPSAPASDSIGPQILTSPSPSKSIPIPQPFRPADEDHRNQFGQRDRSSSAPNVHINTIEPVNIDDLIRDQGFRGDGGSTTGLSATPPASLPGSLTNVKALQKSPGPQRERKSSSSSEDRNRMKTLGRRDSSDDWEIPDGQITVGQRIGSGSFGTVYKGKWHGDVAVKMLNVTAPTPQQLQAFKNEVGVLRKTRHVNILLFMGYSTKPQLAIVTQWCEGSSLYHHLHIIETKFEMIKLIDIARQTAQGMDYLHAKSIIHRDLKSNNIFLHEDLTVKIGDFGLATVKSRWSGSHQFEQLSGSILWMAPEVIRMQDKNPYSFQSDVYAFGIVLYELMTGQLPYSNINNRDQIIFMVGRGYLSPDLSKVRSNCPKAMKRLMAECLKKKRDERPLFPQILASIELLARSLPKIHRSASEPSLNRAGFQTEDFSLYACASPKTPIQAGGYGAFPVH
O=S(=O)(NCCNC/C=C/c1ccc(Br)cc1)c1cccc2cnccc12: 99.8%
Cc1ccc(NC2=CC(=O)c3sc(C)nc3C2=O)cc1: 96.7%
CC[n+]1c(/C=C/N(C)c2ccccc2)n(-c2ccccc2)c2ccc(-c3nc4ccccc4s3)cc21: 100%
CCc1[nH]c(-c2ccc(OC)cc2)nc1-c1ccncc1: 102%
CC(C)(C)n1nc(Cc2cccc3ccccc23)c2c(N)ncnc21: 91.3%
CC#CC(=O)Nc1cc2c(Nc3ccc(F)c(Cl)c3)ncnc2cn1: 82.1%
Nc1ncnc2c1cnn2-c1ccccc1: 93.6%
Nc1nccc(-c2c(-c3ccc(F)cc3)ncn2C2CCNCC2)n1: 103%
O=C1Cc2c([nH]c3ccc([N+](=O)[O-])cc23)-c2ccccc2N1: 99.5%
Nc1nc(Nc2ccc(S(N)(=O)=O)cc2)nn1C(=O)c1c(F)cccc1F: 55%
Cc1cc(Nc2nc(-c3ccccc3)nc3ccccc23)n[nH]1: 99.5%
O=C1NC(=O)C(c2c[nH]c3ccccc23)=C1c1c[nH]c2ccccc12: 101%
N#CC(=C(N)Sc1ccc(N)cc1)c1ccccc1C(F)(F)F: 95%
CSc1nc(-c2ccnc(N[C@@H](C)c3ccccc3)c2)c(-c2ccc(F)cc2)[nH]1 (racemic): 91.8%

Single results of other studies
Cn1cncc1[C@@](O)(COc1ccc(C#N)cc1-c1ccc(OC(F)(F)F)cc1)c1ccc(C#N)cc1
total cell count (HEK293T; high-content imaging; 10 µM, 24 h): 789

COc1cc(-c2cn(C3CCc4ccccc4N(CC(F)(F)F)C3=O)nn2)ccc1-n1ccc(C)n1 (stereo not drawn)
Ki (Alpha-1A adrenergic receptor (ADRA1A, Homo sapiens, UniProt P35348); binding): 1390 nM

For quick reference, copied from above (block 1):
CC(=O)Nc1nnc(S(N)(=O)=O)s1: 96.4 % of DMSO and 116 % of DMSO and 94 % of DMSO
O=C(CC1CC(c2ccc(F)cc2F)=NO1)N1CCOCC1 (stereo not drawn): 103 % of DMSO
Cc1ncc(CO)c(CO)c1O: 95.9 % of DMSO
O=C(O)c1ccccc1Nc1cccc(OCc2ccc3ccccc3n2)c1: 90.2 % of DMSO
